Literature values as cited in several papers.
Protocols differ between the studies behind these lines. ± gives the spread as reported. ≈ marks a conversion by molar mass, not a printed value.
BCHE: Cholinesterase (BCHE, Homo sapiens, UniProt P06276)
UniProt P06276, sequence (whole entry, looked up): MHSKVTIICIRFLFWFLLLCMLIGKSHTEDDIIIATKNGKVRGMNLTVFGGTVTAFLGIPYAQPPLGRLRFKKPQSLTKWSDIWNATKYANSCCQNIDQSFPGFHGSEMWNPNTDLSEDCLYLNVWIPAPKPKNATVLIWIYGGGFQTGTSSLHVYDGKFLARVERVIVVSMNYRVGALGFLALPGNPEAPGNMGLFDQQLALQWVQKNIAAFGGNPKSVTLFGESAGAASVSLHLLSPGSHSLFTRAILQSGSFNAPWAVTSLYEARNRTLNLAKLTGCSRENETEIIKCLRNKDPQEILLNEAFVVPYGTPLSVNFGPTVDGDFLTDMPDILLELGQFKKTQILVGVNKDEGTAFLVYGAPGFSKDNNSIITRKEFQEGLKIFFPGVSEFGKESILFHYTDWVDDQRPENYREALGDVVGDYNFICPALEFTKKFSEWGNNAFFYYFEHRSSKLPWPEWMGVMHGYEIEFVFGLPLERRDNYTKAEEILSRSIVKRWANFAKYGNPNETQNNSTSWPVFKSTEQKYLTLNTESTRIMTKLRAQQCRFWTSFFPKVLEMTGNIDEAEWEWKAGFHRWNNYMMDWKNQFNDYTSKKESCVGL
ADORA1: Adenosine receptor A1 (ADORA1, Homo sapiens, UniProt P30542)
UniProt P30542, sequence (whole entry, looked up): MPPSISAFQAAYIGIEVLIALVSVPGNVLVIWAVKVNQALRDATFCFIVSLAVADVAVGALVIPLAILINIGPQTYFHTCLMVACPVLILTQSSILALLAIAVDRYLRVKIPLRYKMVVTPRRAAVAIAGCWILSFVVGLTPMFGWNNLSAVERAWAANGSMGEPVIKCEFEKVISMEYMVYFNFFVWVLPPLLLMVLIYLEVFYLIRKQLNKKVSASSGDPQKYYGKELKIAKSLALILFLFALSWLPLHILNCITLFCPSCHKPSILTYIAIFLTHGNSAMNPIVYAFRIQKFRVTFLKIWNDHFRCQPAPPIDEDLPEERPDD
UniProt P41595, sequence (whole entry, looked up): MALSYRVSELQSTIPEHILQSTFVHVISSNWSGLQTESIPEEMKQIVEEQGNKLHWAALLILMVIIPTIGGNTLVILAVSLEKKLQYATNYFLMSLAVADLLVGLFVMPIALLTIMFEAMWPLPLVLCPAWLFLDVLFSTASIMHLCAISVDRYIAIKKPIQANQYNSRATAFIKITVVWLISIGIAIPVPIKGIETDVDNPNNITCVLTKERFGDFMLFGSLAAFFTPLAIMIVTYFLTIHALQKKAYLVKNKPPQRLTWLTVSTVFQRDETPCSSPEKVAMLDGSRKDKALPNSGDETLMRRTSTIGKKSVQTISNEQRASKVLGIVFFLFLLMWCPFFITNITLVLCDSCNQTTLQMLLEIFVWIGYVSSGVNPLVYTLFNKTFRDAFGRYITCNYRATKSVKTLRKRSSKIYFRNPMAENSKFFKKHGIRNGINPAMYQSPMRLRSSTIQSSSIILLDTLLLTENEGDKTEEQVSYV
UniProt P22303, sequence (whole entry, looked up): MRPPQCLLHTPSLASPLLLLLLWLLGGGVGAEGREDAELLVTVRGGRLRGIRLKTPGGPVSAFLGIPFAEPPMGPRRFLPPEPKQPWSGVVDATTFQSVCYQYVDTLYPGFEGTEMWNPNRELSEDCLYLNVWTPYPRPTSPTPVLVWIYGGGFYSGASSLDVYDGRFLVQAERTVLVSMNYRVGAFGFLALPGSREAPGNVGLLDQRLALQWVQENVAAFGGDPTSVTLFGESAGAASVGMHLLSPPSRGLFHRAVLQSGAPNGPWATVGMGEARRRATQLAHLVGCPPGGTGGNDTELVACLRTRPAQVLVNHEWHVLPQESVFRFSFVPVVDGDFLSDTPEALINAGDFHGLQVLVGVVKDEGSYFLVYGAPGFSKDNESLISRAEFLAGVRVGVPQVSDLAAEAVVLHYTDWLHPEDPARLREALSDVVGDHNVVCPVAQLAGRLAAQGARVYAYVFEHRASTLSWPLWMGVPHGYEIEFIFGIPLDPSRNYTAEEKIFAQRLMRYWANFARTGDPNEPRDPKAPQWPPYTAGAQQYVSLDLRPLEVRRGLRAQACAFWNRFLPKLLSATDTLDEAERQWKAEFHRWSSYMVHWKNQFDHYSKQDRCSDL
UniProt Q99895, sequence (whole entry, looked up): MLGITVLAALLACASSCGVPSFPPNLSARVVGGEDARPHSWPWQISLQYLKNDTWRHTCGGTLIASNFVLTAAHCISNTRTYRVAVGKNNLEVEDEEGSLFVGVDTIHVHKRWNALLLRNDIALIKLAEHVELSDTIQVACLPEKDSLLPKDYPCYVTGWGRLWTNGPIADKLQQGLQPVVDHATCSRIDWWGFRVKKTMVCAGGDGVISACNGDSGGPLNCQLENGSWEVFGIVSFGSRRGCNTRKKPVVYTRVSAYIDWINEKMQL
UniProt P28335, sequence (whole entry, looked up): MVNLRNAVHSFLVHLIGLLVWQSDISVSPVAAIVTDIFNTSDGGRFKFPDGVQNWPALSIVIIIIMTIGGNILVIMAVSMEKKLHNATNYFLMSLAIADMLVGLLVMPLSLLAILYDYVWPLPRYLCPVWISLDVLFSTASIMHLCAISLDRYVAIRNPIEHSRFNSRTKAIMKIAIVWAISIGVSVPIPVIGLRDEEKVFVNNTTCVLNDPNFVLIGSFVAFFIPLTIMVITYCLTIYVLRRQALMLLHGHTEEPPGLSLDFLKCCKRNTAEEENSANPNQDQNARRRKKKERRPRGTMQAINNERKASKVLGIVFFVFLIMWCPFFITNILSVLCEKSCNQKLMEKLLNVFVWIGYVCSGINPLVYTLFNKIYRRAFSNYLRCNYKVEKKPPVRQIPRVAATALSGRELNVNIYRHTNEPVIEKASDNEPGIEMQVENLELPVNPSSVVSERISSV

Compound | target or system | assay | system | setting | quantity | result
O=C(Cc1ccccc1Cl)Cn1cc(COC2=CC(=O)c3ccccc3C2=O)nn1 | BCHE | inhibitor | – | – | Ki | 8.04 nM
C=CCN1C[C@H](C)N([C@@H](c2cccc(O)c2)c2cccc(C(=O)N(C)c3cccc(F)c3)c2)C[C@H]1C | rat kappa opioid receptor | binding | – | – | Ki | 0.46 nM
CC[C@H](C)[C@H](NC(=O)[C@H](CCCN)NC(=O)[C@H](CCCNC(=N)N)NC(=O)[C@@H]1CCCN1C(=O)[C@@H]1CCCN1C(=O)[C@H](CCCNC(=N)N)NC(=O)[C@@H]1CCCN1C(=O)[C@H](CCCNC(=N)N)NC(=O)[C@@H]1CCCN1C(=O)[C@H](CC(C)C)NC(=O)[C@H](Cc1ccc(O)cc1)NC(=O)[C@@H]1CCCN1C(=O)[C@@H]1CCCN1C(=O)[C@H](CCCCN)NC(=O)[C@H](CC(=O)O)NC(=O)[C@@H](N)C(C)C)C(=O)N[C@@H](Cc1ccc(O)cc1)C(=O)N[C@@H](CC(N)=O)C(=O)N[C@@H](CCCN)C(N)=O | – | – | mouse | subcutaneous, 600 mg/kg total, outcome: not toxic | tolerability | not toxic
COCCC(=O)N[C@H]1CC[C@H](CCN2CCN(c3cccc(Cl)c3Cl)CC2)CC1 | dopamine D3 receptor | – | – | – | Ki | 0.14 nM
CNC(=O)[C@@]12C[C@@H]1[C@@H](n1cnc3c(NC(C4CC4)C4CC4)nc(Cl)nc31)[C@H](O)[C@@H]2O | HTR2C (Homo sapiens, UniProt P28335) | binding | – | with: [3H]mesulergine | Ki | 269 nM
O=C(Cn1cc(CN2C(=O)C(=O)c3cc(F)ccc32)nn1)NCc1ccccc1Cl | BCHE | – | – | – | Ki | 8.04 nM
COC(=O)OC1C(=O)C2(C)C(O)CC3OCC3(OC(C)=O)C2C(OC(=O)c2cccc(OC(F)(F)F)c2)C2(O)CC(OC(=O)C(O)C(C=C(C)C)NC(=O)OC(C)(C)C)C(C)=C1C2(C)C (centres unmarked) | MCF7 | cytotoxicity | – | – | IC50 | 0.32 nM
CC(C)CCCC(C)C1CCC2C3CCC4CC(OC5OC(COS(=O)(=O)O)C(OS(=O)(=O)O)C(OS(=O)(=O)O)C5OC5OC(COS(=O)(=O)O)C(OS(=O)(=O)O)C(OC6OC(COS(=O)(=O)O)C(OS(=O)(=O)O)C(OC7OC(COS(=O)(=O)O)C(OS(=O)(=O)O)C(OS(=O)(=O)O)C7OS(=O)(=O)O)C6OS(=O)(=O)O)C5OS(=O)(=O)O)CCC4(C)C3CCC12C (centres unmarked) | heparanase | – | – | – | Ki | 59 nM
CCC(=O)OC1C(=O)C2(C)C(O)CC3OCC3(OC(C)=O)C2C(OC(=O)c2cccc(OC(F)(F)F)c2)C2(O)CC(OC(=O)C(O)C(C=C(C)C)NC(=O)OC(C)(C)C)C(C)=C1C2(C)C (centres unmarked) | MCF7 | cytotoxicity | – | – | IC50 | 0.37 nM
CC[C@H](C)[C@H](NC(=O)[C@@H]1CCCN1C(=O)CNC(=O)[C@H](CC(C)C)NC(=O)[C@H](CCCCN)NC(=O)[C@H](CCCNC(=N)N)NC(=O)[C@H](Cc1c[nH]c2ccccc12)NC(=O)[C@H](C)NC(=O)[C@H](CC(N)=O)NC(=O)[C@H](CCCCN)NC(=O)[C@H](CC(C)C)NC(=O)[C@H](CCCCN)NC(=O)[C@H](CC(N)=O)NC(=O)[C@H](CCCNC(=N)N)NC(=O)[C@H](C)NC(=O)[C@H](CCCNC(=N)N)NC(=O)[C@H](CCCNC(=N)N)NC(=O)[C@H](Cc1ccccc1)NC(=O)[C@H](Cc1c[nH]c2ccccc12)NC(=O)CN)C(=O)N[C@H](C(=O)NCC(=O)N1CCC[C@H]1C(=O)N[C@@H](CC(C)C)C(=O)N[C@@H](CC(C)C)C(=O)N[C@H](C(=O)N[C@@H](CCCNC(=N)N)C(=O)O)[C@@H](C)O)C(C)C | Staphylococcus aureus | – | – | – | MIC | 16 µM (≈ 51.3 µg/mL)
CCOC(=O)[C@@]12C[C@@H]1[C@@H](n1cnc3c(NC(C4CC4)C4CC4)nc(Cl)nc31)[C@H](O)[C@@H]2O | HTR2B (Homo sapiens, UniProt P41595) | binding | – | with: [3H]LSD | Ki | 15 nM
O=C(Cn1cc(COC2=CC(=O)c3ccccc3C2=O)nn1)NCc1ccccc1Cl | BCHE | – | – | – | Ki | 8.04 nM
C[C@@H]1CN([C@@H](c2cccc(O)c2)c2cccc(C(=O)N(C)c3cccc(F)c3)c2)[C@@H](C)CN1Cc1ccccc1 | mu opioid receptor rat | – | – | – | Ki | 1.58 nM
CSCC[C@@H]1NC(=O)[C@H](CC(C)C)NC(=O)[C@H]([C@@H](C)O)NC(=O)[C@@H]2CSSC[C@@H]3NC(=O)[C@H]([C@@H](C)O)NC(=O)[C@H](CC(N)=O)NC(=O)[C@H](CSSC[C@@H](C(=O)N[C@@H](CC(=O)O)C(=O)N[C@@H](CCC(N)=O)C(=O)O)NC(=O)[C@H](CC(C)C)NC1=O)NC(=O)[C@H](CCCCN)NC(=O)[C@H](CC(=O)O)NC(=O)[C@H](CCCCN)NC(=O)[C@H](Cc1ccccc1)NC(=O)[C@H]([C@@H](C)O)NC(=O)[C@H]([C@@H](C)O)NC(=O)CNC(=O)[C@@H]1CCCN1C(=O)[C@H](CCC(=O)O)NC(=O)[C@@H](NC(=O)[C@@H](NC(=O)[C@@H](NC(=O)[C@H](CCC(=O)O)NC(=O)[C@H](CO)NC(=O)CN)C(C)C)[C@@H](C)O)CSSC[C@H](NC(=O)[C@H](CCCNC(=N)N)NC3=O)C(=O)NCC(=O)N[C@@H](CO)C(=O)N[C@@H](CC(=O)O)C(=O)NCC(=O)N[C@@H](CCCCN)C(=O)N[C@@H](CO)C(=O)N[C@@H](C)C(=O)N[C@@H](C)C(=O)N2 | Chymotrypsin-C (Homo sapiens, UniProt Q99895) | – | – | – | Ki | 0.04 nM
C=CCN1C[C@H](C)N([C@@H](c2ccccc2)c2ccc(C(=O)N(CC)CC)cc2)C[C@H]1C | mu opioid receptor rat | – | – | – | Ki | 3000 nM
CC(C)[C@@H](Nc1nc(Cl)nc2c1ncn2[C@H]1[C@H](O)[C@H](O)[C@]2(CO)C[C@H]12)C1CC1 | ADORA1 | binding | – | with: [3H]R-PIA | Ki | 103 ± 7 nM
COC(=O)C1C2CCC(CC1c1ccc(Cl)c(Cl)c1)O2 (centres unmarked) | dopamine transporter | binding | – | – | Ki | 3.4 nM
O=C(Cn1cc(COc2ccc3ccc(=O)oc3c2)nn1)Nc1ccccc1Cl | ACHE (Homo sapiens, UniProt P22303) | enzyme activity, inhibitor | – | – | Ki | 29.4 nM
OC[C@@]12C[C@@H]1[C@@H](n1cnc3c(N[C@@H](C4CCC4)C4CC4)nc(Cl)nc31)[C@H](O)[C@@H]2O | ADORA1 | binding | – | with: [3H]R-PIA | Ki | 144 ± 32 nM
CC(C)[C@H](NC(=O)[C@H](CCCNC(=N)N)NC(=O)[C@H](Cc1ccccc1)NC(=O)[C@H](CS)NC(=O)[C@@H](N)Cc1c[nH]c2ccccc12)C(=O)N[C@@H](CS)C(=O)N[C@@H](Cc1ccccc1)C(=O)N[C@@H](CCCCN)C(=O)NCC(=O)N[C@@H](Cc1ccccc1)C(=O)N[C@@H](CS)C(=O)N[C@@H](Cc1ccc(O)cc1)C(=O)N[C@@H](CCCNC(=N)N)C(=O)N[C@@H](Cc1ccccc1)C(=O)N[C@@H](CS)C(=O)O | Staphylococcus aureus | – | – | – | MIC | > 128 µM

For quick reference, copied from above:
Compound | target or system | assay | system | setting | quantity | result
OC[C@@]12C[C@@H]1[C@@H](n1cnc3c(N[C@@H](C4CCC4)C4CC4)nc(Cl)nc31)[C@H](O)[C@@H]2O | ADORA1 | binding | – | with: [3H]R-PIA | Ki | 144 ± 32 nM
O=C(Cn1cc(COC2=CC(=O)c3ccccc3C2=O)nn1)NCc1ccccc1Cl | BCHE | – | – | – | Ki | 8.04 nM
CC[C@H](C)[C@H](NC(=O)[C@H](CCCN)NC(=O)[C@H](CCCNC(=N)N)NC(=O)[C@@H]1CCCN1C(=O)[C@@H]1CCCN1C(=O)[C@H](CCCNC(=N)N)NC(=O)[C@@H]1CCCN1C(=O)[C@H](CCCNC(=N)N)NC(=O)[C@@H]1CCCN1C(=O)[C@H](CC(C)C)NC(=O)[C@H](Cc1ccc(O)cc1)NC(=O)[C@@H]1CCCN1C(=O)[C@@H]1CCCN1C(=O)[C@H](CCCCN)NC(=O)[C@H](CC(=O)O)NC(=O)[C@@H](N)C(C)C)C(=O)N[C@@H](Cc1ccc(O)cc1)C(=O)N[C@@H](CC(N)=O)C(=O)N[C@@H](CCCN)C(N)=O | – | – | mouse | subcutaneous, 600 mg/kg total, outcome: not toxic | tolerability | not toxic
